Published values pooled from the literature.
Organism: Trypanosoma brucei

Cc1ccc(Cn2cc(C(=O)N/N=C/c3ccc([N+](=O)[O-])o3)c(=O)c3ccc(Oc4ccccc4)cc32)cc1
EC50 (parasite growth, resazurin; 72 h): 0.21 µM

CN1CC(=O)NC(=O)C12CCCCCC2
IC50 (parasite growth; pH 7.4, blood stage): > 400 µM

Cc1cnc(CNC(=O)c2c(=O)c3ccc(N4CCCN(C)CC4)nc3n3c2sc2ccccc23)cn1
upregulated genes (RNA-seq; Lister 427 bloodstream form; 2 x EC50, 4 h, log2 FC ±1, FDR 0.05; relative to: untreated): 43 genes

CCCCCC(=O)N[C@@H](Cc1ccc(NC(=O)OC(C)(C)C)cc1)C(=O)N[C@@H](CCCC)C(=O)N[C@@H](CC(C)C)C(=O)[C@@]1(C)CO1
EC50 (parasite growth, SYBR Green; 72 h): > 4 µM

O=C1NC(=O)C2(N[C@@H]1Cc1ccccc1)C1CC3CC(C1)CC2C3 (stereo partly drawn)
IC50 (parasite growth; pH 7.4, blood stage): 38.6 µM

CCCCCC(=O)NC(CC(=O)N(CC)CC)C(=O)NC(Cc1ccc(F)cc1)C(=O)NC(Cc1ccc(F)cc1F)C(=O)C1(C)CO1 (stereo not drawn)
EC50 (parasite growth, SYBR Green; 72 h): 0.039 µM

C[n+]1cc(NC(=O)c2ccc3ccc4ccc(C(=O)Nc5cc6ccccc6[n+](C)c5)nc4c3n2)cc2ccccc21
unchanged genes (RNA-seq; Lister 427 bloodstream form; 2 × EC50, 4 h; relative to: untreated): 16900 genes

CCCCCC(=O)N[C@H](C(=O)N[C@@H](CCS(C)(=O)=O)C(=O)N[C@@H](CC(C)C)C(=O)[C@@]1(C)CO1)C(C)C
EC50 (parasite growth, SYBR Green; 72 h): 0.031 µM

O=C(O)CN1C(=O)CNC2(CCCCCCC2)C1=O
IC50 (parasite growth; pH 7.4, blood stage): 760 µM

CCCCCC(=O)N[C@@H](Cc1c[nH]c2ccccc12)C(=O)N[C@@H](CCCC)C(=O)N[C@@H](CC(C)C)C(=O)[C@@]1(C)CO1
EC50 (parasite growth, SYBR Green; 72 h): 0.195 µM

O=C(O)CN1C(=O)[C@@H](Cc2ccccc2)NC2(C1=O)C1CC3CC(C1)CC2C3 (stereo partly drawn)
IC50 (parasite growth; pH 7.4, blood stage): 171 µM

CN(C)CCNC(=O)c1cccn2c(=O)c3cc4ccccc4cc3nc12
downregulated genes (RNA-seq; Lister 427 bloodstream form; 2 × EC50, 4 h, log2 FC 1, FDR 0.05; relative to: untreated): 270 genes

O=C1CNC2(CCCCCC2)C(=O)N1
IC50 (parasite growth; pH 7.4, blood stage): > 400 µM

CCCCCC(=O)N[C@@H](Cc1ccc(N)cc1)C(=O)N[C@@H](CCCC)C(=O)N[C@@H](Cc1ccccc1)C(=O)[C@@]1(C)CO1
EC50 (parasite growth, SYBR Green; 72 h): 0.567 µM

Cc1cccc(-c2ccc3nc(NC(=O)C4CCCCC4)nn3c2)c1
EC50 (parasite growth): 6.6 µM

A few entries again:
CCCCCC(=O)N[C@H](C(=O)N[C@@H](CCS(C)(=O)=O)C(=O)N[C@@H](CC(C)C)C(=O)[C@@]1(C)CO1)C(C)C
EC50 (parasite growth, SYBR Green; 72 h): 0.031 µM
